Results pooled from the literature.
Every numbered part comes from another study and shows a few of its results, in no order.
Chain of UniProt O60285 (whole entry, looked up): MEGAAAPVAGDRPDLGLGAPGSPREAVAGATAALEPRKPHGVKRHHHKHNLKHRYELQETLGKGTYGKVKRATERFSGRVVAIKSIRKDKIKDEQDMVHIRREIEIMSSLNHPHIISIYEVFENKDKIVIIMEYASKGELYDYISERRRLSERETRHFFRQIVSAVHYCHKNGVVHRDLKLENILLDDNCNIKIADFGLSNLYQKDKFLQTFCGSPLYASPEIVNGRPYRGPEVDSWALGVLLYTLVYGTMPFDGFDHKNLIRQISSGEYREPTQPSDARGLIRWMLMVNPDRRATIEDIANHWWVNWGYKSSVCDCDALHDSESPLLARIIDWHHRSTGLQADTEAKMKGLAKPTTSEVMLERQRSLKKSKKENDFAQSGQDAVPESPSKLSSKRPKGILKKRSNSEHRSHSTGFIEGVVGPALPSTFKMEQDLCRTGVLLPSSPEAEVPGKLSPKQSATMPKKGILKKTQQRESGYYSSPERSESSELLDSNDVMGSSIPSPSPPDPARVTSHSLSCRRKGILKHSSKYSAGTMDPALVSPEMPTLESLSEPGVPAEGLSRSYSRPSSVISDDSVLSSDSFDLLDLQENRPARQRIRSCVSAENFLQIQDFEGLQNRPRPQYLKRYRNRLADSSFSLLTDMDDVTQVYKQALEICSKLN
Chain of UniProt O00444 (whole entry, looked up): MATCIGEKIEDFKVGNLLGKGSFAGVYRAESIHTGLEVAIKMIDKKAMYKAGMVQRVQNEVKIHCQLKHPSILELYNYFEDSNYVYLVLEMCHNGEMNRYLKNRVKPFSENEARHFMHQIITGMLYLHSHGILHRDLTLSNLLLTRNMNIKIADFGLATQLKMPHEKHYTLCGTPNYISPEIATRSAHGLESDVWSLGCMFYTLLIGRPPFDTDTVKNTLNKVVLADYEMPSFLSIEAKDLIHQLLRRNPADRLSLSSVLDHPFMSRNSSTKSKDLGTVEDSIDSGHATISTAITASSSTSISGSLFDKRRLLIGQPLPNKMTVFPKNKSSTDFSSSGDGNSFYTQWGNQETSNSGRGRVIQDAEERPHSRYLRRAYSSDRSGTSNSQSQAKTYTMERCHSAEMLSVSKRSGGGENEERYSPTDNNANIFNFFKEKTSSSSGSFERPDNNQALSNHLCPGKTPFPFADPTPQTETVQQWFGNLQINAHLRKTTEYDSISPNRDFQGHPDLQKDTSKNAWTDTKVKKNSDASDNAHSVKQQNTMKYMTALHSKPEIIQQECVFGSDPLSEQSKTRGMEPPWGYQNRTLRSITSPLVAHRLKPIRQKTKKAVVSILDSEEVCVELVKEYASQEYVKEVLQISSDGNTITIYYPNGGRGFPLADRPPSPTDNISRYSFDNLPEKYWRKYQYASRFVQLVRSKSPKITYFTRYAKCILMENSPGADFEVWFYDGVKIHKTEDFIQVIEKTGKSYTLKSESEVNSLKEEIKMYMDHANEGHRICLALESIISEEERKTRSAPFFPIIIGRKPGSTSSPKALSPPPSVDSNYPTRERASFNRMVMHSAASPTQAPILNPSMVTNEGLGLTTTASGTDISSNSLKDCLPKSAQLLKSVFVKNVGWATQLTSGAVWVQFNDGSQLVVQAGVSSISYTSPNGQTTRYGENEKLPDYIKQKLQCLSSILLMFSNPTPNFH
Chain of UniProt Q8NE63 (whole entry, looked up): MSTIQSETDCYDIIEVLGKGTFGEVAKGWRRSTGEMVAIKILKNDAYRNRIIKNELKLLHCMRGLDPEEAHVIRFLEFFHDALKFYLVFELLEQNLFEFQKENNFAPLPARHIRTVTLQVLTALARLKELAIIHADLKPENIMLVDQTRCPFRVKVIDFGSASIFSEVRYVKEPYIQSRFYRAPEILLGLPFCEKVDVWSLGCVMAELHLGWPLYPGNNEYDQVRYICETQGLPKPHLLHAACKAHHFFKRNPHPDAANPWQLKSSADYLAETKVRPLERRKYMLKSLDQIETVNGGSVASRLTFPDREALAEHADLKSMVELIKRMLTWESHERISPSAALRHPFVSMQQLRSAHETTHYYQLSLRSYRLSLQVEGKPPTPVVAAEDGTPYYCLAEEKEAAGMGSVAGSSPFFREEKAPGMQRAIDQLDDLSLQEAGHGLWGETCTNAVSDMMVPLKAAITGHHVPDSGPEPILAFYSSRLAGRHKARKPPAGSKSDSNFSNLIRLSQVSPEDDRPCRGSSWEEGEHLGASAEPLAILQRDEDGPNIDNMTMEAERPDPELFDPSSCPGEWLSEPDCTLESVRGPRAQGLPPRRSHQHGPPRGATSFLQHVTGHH
Chain of UniProt Q15569 (whole entry, looked up): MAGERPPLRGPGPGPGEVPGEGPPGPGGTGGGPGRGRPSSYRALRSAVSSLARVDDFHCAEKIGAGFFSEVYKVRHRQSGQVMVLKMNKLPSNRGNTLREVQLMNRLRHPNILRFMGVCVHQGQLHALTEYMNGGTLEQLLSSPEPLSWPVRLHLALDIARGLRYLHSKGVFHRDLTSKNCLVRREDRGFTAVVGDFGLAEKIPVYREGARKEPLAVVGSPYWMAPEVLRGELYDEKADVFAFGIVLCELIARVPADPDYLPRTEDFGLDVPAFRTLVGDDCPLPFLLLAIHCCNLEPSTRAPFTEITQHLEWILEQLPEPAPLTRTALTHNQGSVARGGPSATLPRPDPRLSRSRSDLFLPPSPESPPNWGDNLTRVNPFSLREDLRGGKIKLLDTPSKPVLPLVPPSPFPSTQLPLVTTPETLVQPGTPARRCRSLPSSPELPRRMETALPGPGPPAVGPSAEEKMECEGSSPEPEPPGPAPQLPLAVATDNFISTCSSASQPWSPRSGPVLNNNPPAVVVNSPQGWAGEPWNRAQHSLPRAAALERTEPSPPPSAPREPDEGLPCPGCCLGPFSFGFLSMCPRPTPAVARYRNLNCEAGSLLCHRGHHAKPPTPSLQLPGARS
Chain of UniProt Q02156 (whole entry, looked up): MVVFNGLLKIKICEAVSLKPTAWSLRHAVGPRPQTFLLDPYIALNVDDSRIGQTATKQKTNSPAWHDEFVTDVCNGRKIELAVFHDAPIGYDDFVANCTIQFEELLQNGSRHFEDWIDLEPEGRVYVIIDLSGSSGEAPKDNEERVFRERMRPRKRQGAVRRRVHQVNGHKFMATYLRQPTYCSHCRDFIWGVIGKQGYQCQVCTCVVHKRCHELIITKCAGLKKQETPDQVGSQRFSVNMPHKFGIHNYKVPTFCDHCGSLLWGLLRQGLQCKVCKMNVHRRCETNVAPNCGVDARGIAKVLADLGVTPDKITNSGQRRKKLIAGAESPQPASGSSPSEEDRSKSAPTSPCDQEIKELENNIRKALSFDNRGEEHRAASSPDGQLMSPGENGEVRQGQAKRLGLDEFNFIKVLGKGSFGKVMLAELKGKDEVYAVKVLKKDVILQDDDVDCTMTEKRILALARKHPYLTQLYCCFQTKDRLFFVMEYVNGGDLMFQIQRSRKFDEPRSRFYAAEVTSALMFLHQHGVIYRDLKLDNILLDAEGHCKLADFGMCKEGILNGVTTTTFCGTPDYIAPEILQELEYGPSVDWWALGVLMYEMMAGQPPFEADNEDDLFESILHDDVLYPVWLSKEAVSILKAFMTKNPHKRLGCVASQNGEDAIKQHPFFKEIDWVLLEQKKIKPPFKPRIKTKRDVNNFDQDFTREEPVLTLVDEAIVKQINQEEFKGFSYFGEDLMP
Chain of UniProt Q86UE8 (whole entry, looked up): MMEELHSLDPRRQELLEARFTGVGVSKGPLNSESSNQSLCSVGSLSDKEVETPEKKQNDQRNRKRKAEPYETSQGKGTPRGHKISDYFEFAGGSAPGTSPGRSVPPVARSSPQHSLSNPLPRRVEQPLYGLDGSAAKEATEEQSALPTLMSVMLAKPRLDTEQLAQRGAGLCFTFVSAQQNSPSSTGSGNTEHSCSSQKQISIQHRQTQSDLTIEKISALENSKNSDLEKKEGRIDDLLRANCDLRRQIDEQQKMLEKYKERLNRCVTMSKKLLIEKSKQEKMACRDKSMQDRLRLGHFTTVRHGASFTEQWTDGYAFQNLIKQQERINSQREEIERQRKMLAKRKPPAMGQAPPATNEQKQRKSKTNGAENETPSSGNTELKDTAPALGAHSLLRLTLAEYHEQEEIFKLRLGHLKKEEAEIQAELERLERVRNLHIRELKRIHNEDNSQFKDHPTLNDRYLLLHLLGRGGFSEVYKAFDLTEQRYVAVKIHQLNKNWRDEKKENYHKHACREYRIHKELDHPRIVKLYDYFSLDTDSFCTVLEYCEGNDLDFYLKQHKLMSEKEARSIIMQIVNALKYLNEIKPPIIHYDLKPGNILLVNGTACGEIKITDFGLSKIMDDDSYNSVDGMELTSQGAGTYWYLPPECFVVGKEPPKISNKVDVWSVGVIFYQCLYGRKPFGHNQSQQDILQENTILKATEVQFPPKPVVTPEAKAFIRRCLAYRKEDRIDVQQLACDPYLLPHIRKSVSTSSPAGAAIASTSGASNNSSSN
Chain of UniProt P43403 (whole entry, looked up): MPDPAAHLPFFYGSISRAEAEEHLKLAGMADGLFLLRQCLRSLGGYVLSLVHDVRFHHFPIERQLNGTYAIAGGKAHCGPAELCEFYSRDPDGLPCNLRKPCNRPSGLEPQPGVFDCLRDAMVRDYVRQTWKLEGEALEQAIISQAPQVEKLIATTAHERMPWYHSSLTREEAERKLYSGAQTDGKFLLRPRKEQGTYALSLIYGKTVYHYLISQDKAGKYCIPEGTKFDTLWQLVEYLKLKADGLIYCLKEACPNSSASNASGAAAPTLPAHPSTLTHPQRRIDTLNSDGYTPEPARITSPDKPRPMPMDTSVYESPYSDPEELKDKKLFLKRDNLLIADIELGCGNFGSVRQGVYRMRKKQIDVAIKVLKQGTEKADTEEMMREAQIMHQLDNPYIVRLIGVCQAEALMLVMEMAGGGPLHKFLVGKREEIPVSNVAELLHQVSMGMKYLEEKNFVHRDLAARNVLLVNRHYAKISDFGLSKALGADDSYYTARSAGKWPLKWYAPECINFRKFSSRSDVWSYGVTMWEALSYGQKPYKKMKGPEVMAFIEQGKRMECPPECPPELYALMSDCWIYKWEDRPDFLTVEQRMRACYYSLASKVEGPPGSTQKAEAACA

Series 1 — method: phase 2a trial; host: idiopathic pulmonary fibrosis patients
Compound: CC(C)n1cnc(-c2ccc(F)cc2)c1-c1ncc(C(=O)Nc2ccc(N3CCN(C)CC3)cc2)[nH]1
conditions	patients with hypothyroidism [%]
30 mg once daily, grade 3 emergent event	0
all arms pooled, grade 4 emergent event	0
30 mg once daily, grade 2 emergent event	0

Series 2 — host: mouse; matrix: microsomes or S9; concentration: 2 µM; time: 0.5 h
SMILES	remaining compound [%]
O=S(=O)(c1cccc2cccnc12)n1ncc2c(Cl)ncnc21	78.2
Cc1nc2c(s1)CN(C(=O)CNS(=O)(=O)c1ccc(Oc3ccccc3)cc1)CC2	2.75
CCN(CC)S(=O)(=O)c1ccc(NC(=O)CN(c2cc(C)ccc2C)S(C)(=O)=O)cc1	< 1

Series 3 — organism: Sarcocystis neurona; read-out: parasite growth; concentration: 10 µM; time: 96 h; relative to: untreated
Structure (SMILES)	log2 fold change
NS(=O)(=O)c1cc(C2(O)NC(=O)c3ccccc32)ccc1Cl (centres unmarked)	0.27
COc1cc(C)c(Cc2cnc(N)nc2N)cc1OC	-1.41
CC(C)c1nc(CN(C)C(=O)N[C@H](C(=O)N[C@@H](Cc2ccccc2)C[C@H](O)[C@H](Cc2ccccc2)NC(=O)OCc2cncs2)C(C)C)cs1	-0.56

Series 4 — method: competition with immobilised ligand; concentration: 1 µM
Compound: Cn1nc(C(F)(F)F)cc1-c1cnc(N2CCc3cc(S(=O)(=O)Nc4c(F)cc(Cl)cc4F)cc(N4CCCC4=O)c32)nc1
target	assay	remaining binding [%]
Protein kinase C epsilon type (PRKCE, Homo sapiens, UniProt Q02156)	cell-free assay	96
Platelet-derived growth factor receptor alpha (PDGFRA, Homo sapiens, UniProt P16234)	cell-free assay	88
Dual specificity testis-specific protein kinase 1 (TESK1, Homo sapiens, UniProt Q15569)	cell-free assay	86
NUAK family SNF1-like kinase 1 (NUAK1, Homo sapiens, UniProt O60285)	cell-free assay	89
Serine/threonine-protein kinase PLK4 (PLK4, Homo sapiens, UniProt O00444)	cell-free assay	77
Tyrosine-protein kinase ABL1, non-phosphorylated (ABL1, Homo sapiens, UniProt P00519, F317I)	binding	71
Serine/threonine-protein kinase tousled-like 2 (TLK2, Homo sapiens, UniProt Q86UE8)	cell-free assay	94
Homeodomain-interacting protein kinase 4 (HIPK4, Homo sapiens, UniProt Q8NE63)	cell-free assay	100
Inhibitor of nuclear factor kappa-B kinase subunit beta (IKBKB, Homo sapiens, UniProt O14920)	cell-free assay	81
Receptor-type tyrosine-protein kinase FLT3 (FLT3, Homo sapiens, UniProt P36888, F691L/ITD)	cell-free assay	32
Serine/threonine-protein kinase 17A (STK17A, Homo sapiens, UniProt Q9UEE5)	cell-free assay	83
Phosphatidylinositol 4-phosphate 5-kinase type-1 gamma (PIP5K1C, Homo sapiens, UniProt O60331)	cell-free assay	93
Tyrosine-protein kinase ZAP-70 (ZAP70, Homo sapiens, UniProt P43403)	cell-free assay	93

Mixed results
Compound	cell line	assay	conditions	how to read	measurement	result
CC(=O)NCCSc1nc2cscc2c(=O)n1-c1ccc(OCC(F)(F)F)cc1	mouse MPNST tumor cells	high-content immunofluorescence imaging, refers to: nuclear SOX9	10 µM, 12 h, mean of 2 replicates	relative to: DMSO control, higher = more nuclear SOX9	nuclear SOX9 intensity	97 % of DMSO
C=CC(=O)N1CCC[C@@H](n2nc(-c3ccc(Oc4ccccc4)cc3)c3c(N)ncnc32)C1	A-375		100 µM, 60 h		viability	4.81%
CO[C@@]1(NC(=O)C(C(=O)O)c2ccc(O)cc2)C(=O)N2C(C(=O)O)=C(CSc3nnnn3C)CO[C@@H]21 (some centres unmarked)	mouse MPNST tumor cells	high-content immunofluorescence imaging, refers to: nuclear SOX9	10 µM, 12 h, mean of 2 replicates	relative to: DMSO control, higher = more nuclear SOX9	nuclear SOX9 intensity	100 % of DMSO
CCOC(=O)CC(=O)N1CCSC1COc1ccccc1OC (centres unmarked)	A-375		100 µM, 60 h		viability	104%

For quick reference, copied from above (series 4):
target	assay	remaining binding [%]
NUAK family SNF1-like kinase 1 (NUAK1, Homo sapiens, UniProt O60285)	cell-free assay	89
Serine/threonine-protein kinase tousled-like 2 (TLK2, Homo sapiens, UniProt Q86UE8)	cell-free assay	94
Protein kinase C epsilon type (PRKCE, Homo sapiens, UniProt Q02156)	cell-free assay	96
Platelet-derived growth factor receptor alpha (PDGFRA, Homo sapiens, UniProt P16234)	cell-free assay	88
